Measured values from different studies.
A part holds a random share of what one study measured. Substitutions count along the parent as printed.

Block 1 — method: RNA Bind-n-Seq; form: RNA; medium: in vitro; concentration: 100 nM; relative to: input RNA pool; reading: higher = stronger binding
Target: RING finger protein unkempt homolog, zinc fingers 1-6, SBP tag (UNK, Homo sapiens, UniProt Q9C0B0, residues 30-357)
UniProt Q9C0B0, sequence (30-357, looked up): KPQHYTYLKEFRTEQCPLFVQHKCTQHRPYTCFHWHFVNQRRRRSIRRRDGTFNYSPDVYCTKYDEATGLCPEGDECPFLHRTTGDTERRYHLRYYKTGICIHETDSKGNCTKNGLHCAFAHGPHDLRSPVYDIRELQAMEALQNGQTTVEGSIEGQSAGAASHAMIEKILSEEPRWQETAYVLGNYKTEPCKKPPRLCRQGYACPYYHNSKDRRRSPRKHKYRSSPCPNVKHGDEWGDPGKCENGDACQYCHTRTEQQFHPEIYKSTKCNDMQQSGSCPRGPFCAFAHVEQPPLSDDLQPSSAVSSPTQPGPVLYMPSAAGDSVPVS
Notes: RNA with constant flanks, vertebrate orthologous sites, ends assumed
| Strand | bound/input enrichment [ratio] |
| --- | --- |
| GGGAGUUCUACAGUCCGACGAUCUGUGAGGGUCUACUGACCGCUCACCACUGAUGUCUGGUAUCUGUAAACACUUUCUGUUCUUAGUCUUUUACUUGUAUAAUUGAUGUUCUUUAAAAUUGUCAGCGUAUAACAGGGCUUAUGCAACAGAGGAUUGAGCAUCA | 1.32 |
| GGGAGUUCUACAGUCCGACGAUCAUUCAAACCUGUGGUACCAUGGCCUCAUGUUGAAGGAGUAGAAGUGGAUUUAGAGUCUAUUAGAAGAAAAAACAAGGCCAAAAAUGAACAAGAACACCAUGCUGGCGGAGAUUCCCAGAACAACAGAGGAUUGAGCAUCA | 0.41 |
| GGGAGUUCUACAGUCCGACGAUCCAGCUGAUUCACUCAUUGGGAGAGCUGCACAUAUAGCUGUUCUUGAUUCGGAAAUAUUUUUAGAGAAAUUCUUUCUGGUUGCUGCCCUCAAAUAUUUCCAAUAGUGUAAAAGCAUUGUUACAACAGAGGAUUGAGCAUCA | 0.816 |

Block 2 — method: protein binding microarray; form: double-stranded DNA, one strand shown; medium: in vitro; concentration: not given; relative to: not given; reading: higher = stronger binding
Target: Histone acetyltransferase KAT6A, winged helix 1, GST fusion (KAT6A, Homo sapiens, UniProt Q92794, residues 1-85)
Notes: 8-mer, flanks averaged, mean of 2 arrays, mostly near background
Target sequence (chain): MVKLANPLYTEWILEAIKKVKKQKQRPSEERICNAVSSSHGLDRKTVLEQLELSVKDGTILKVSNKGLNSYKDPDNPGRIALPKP
| Strand | E-score |
| --- | --- |
| AAATCTTC | -0.0125 |
| AGAATCCG | -0.0297 |
| CCTATACA | -0.143 |
| AATGGTGC | -0.0707 |

Mixed results — CCNB3: CCNB3, cyclin fold, Cln2 fusion (human)
P1: MASTL docking peptide (human); PMIAKNLMCELDE; partner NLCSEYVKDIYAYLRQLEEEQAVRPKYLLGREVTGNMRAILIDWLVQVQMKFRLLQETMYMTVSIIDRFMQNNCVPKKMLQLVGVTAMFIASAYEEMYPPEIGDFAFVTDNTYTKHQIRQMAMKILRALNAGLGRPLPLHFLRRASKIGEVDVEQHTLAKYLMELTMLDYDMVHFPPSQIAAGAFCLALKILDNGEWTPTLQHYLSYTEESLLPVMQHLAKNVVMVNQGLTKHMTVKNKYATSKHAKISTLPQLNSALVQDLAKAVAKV
P2: RB1 docking peptide (human); PKPLKKLRFDIEG; partner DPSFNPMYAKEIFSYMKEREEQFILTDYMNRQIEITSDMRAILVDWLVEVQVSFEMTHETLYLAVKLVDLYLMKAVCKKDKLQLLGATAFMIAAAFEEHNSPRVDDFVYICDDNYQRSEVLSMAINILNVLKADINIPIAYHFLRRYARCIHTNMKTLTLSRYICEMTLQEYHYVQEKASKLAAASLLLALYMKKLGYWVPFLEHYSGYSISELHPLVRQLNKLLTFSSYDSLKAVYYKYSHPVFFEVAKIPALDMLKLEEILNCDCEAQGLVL
P3: CDC6 docking peptide (human); TLKGRRLVFDNQL; partner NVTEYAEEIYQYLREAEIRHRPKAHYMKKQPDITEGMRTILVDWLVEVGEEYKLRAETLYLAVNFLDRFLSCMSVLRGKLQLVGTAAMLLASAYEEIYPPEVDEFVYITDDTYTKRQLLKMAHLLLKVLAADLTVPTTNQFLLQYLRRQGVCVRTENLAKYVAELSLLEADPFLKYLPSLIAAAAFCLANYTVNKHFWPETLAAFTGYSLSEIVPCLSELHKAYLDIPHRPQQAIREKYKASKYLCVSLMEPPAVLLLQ
| Molecule | target | test | test system | setting | scale | endpoint | value |
| --- | --- | --- | --- | --- | --- | --- | --- |
| P1 N6G | CCNB1, cyclin fold, Cln2 fusion (human) | yeast growth competition, sequencing | yeast | strong parent motif | relative to: not given, higher = stronger binding | normalised enrichment score | -0.0529 |
| PhoQ, residues 284 288 289 292 302 303 TLMATV | PhoP, residues 12 14 15 18 19 FWNTL (Escherichia coli, UniProt P23836) | Sort-seq, refers to: YFP reporter | E. coli | PhoQ-PhoP variant library, together with: 10 µM Mg2+ | relative to: high Mg2+ state, higher = stronger signaling | fold induction | 13.8 |
| P2 P1Y | CCNB3 | yeast growth competition, sequencing | yeast | weak parent motif | relative to: not given, higher = stronger binding | normalised enrichment score | 0.01 |
| P3 Q12A | CCNA1, cyclin fold, Cln2 fusion (human) | yeast growth competition, sequencing | yeast | weak parent motif | relative to: not given, higher = stronger binding | normalised enrichment score | 0.235 |
| P2 F9I | CCNB3 | yeast growth competition, sequencing | yeast | weak parent motif | relative to: not given, higher = stronger binding | normalised enrichment score | -0.184 |

For quick reference, copied from above (block 2):
| Strand | E-score |
| --- | --- |
| AAATCTTC | -0.0125 |
